Assay results of several laboratories.
Lines come from different studies, so protocols differ. ± marks the error that the study gave.
Technique: steady-state kinetics
B1: TenA_E (Arabidopsis thaliana, UniProt Q9ASY9); chain MEKRGVIDTWIDKHRSIYTAATRHAFVVSIRDGSVDLSSFRTWLGQDYLFVRRFVPFVASVLIRACKDSGESSDMEVVLGGIASLNDEIEWFKREGSKWDVDFSTVVPQRANQEYGRFLEDLMSSEVKYPVIMTAFWAIEAVYQESFAHCLEDGNKTPVELTGACHRWGNDGFKQYCSSVKNIAERCLENASGEVLGEAEDVLVRVLELEVAFWEMSRGGQ
B2: Cop6 (Coprinopsis cinerea, UniProt A8NCK5); chain MPAALPYNVSRDNKWDIKKIIQDFFKRCDVPYQVIPYDTELWNACLKRAKEKGYPVEPDSPMSLYRSFKVGVVITRTSYGHIQDYEILIWVATFTAFVTYADDAFQEDIQHLHSFARTFLQNEKHEHPVLEAFAQFLRESSIRFSHFVANTVVSSALRFMMSIALEFEGQNVSVSTEAREYPGYIRILSGLSDIYALFAFPMDLPRSTYIQAFPEQIDYINGTNDLLSFYKEELDCETVNFISAAATSQQVSKLEVLRNAAEKAAYSYDVVVNVLKPYPEALAAWKSFARGFCYFHTSSPRYRLGEMFHDFEHDLVCKCASCTEI
B3: ALDH4A1 S352A (Homo sapiens, UniProt P30038); chain TGAGLRWKHTSSLKVANEPVLAFTQGSPERDALQKALKDLKGRMEAIPCVVGDEEVWTSDVQYQVSPFNHGHKVAKFCYADKSLLNKAIEAALAARKEWDLKPIADRAQIFLKAADMLSGPRRAEILAKTMVGQGKTVIQAEIDAAAELIDFFRFNAKYAVELEGQQPISVPPSTNSTVYRGLEGFVAAISPFNFTAIGGNLAGAPALMGNVVLWKPSDTAMLASYAVYRILREAGLPPNIIQFVPADGPLFGDTVTSSEHLCGINFTGSVPTFKHLWKQVAQNLDRFHTFPRLAGECGGKNFHFVHRSADVESVVSGTLRSAFEYGGQKCSACARLYVPHSLWPQIKGRLLEEHSRIKVGDPAEDFGTFFSAVIDAKSFARIKKWLEHARSSPSLTILAGGKCDDSVGYFVEPCIVESKDPQEPIMKEEIFGPVLSVYVYPDDKYKETLQLVDSTTSYGLTGAVFSQDKDVVQEATKVLRNAAGNFYINDKSTGSIVGQQPFGGARASGTNDKPGGPHYILRWTSPQVIKETHKPLGDWSYAYMQ
B4: GTPBP3 N259A (Homo sapiens, UniProt Q969Y2); chain TRRSSGAPAPGSGATIFALSSGQGRCGIAVIRTSGPASGHALRILTAPRDLPLARHASLRLLSDPRSGEPLDRALVLWFPGPQSFTGEDCVEFHVHGGPAVVSGVLQALGSVPGLRPAEAGEFTRRAFANGKLNLTEVEGLADLIHAETEAQRRQALRQLDGELGHLCRGWAETLTKALAHVEAYIDFGEDDNLEEGVLEQADIEVRALQVALGAHLRDARRGQRLRSGVHVVVTGPPAAGKSSLVNLLSRKPVSIVSPEPGTTRDVLETPVDLAGFPVLLSDTAGLREGVGPVEQEGVRRARERLEQADLILAMLDASDLASPSSCNFLATVVASVGAQSPSDSSQRLLLVLNKSDLLSPEGPGPGPDLPPHLLLSCLTGEGLDGLLEALRKELAAVCGDPSTDPPLLTRARHQHHLQGCLDALGHYKQSKDLALAAEALRVARGHLTRLTGGGGTEEILDIIFQDFCVGK
B5: enzyme (Halalkalibacterium halodurans, UniProt Q9KCN8); chain MLNVTQLQEATTFIQQQIETKPTIGLILGSGLGILADEIEQPVKVPYSDIPHFPVSTVQGHAGQLVIGMLEGKQVIAMQGRFHFYEGYSLEVVTFPVRVMKALGVEQIIVTNAAGGVNESFEAGDLMIIRDHINNMAQNPLIGPNDEAFGVRFPDMSNAYSERLRTLAKEKGNTLNLKLQEGVYVANTGPVYETPAEVRMIRKLGGDAVGMSTVPEVIVARHAGLEVLGISCISNMAAGILPQPLSHDEVIETTERVRQDFLNLVKAIVKDM
B6: nahG (Pseudomonas putida, UniProt P23262); chain MKNNKLGLRIGIVGGGISGVALALELCRYSHIQVQLFEAAPAFGEVGAGVSFGPNAVRAIVGLGLGEAYLQVADRTSEPWEDVWFEWRRGSDASYLGATIAPGVGQSSVHRADFIDALVTHLPEGIAQFGKRATQVEQQGGEVQVLFTDGTEYRCDLLIGADGIKSALRSHVLEGQGLAPQVPRFSGTCAYRGMVDSLHLREAYRAHGIDEHLVDVPQMYLGLDGHILTFPVRNGGIINVVAFISDRSEPKPTWPADAPWVREASQREMLDAFAGWGDAARALLECIPAPTLWALHDLAELPGYVHGRVVLIGDAAHAMLPHQGAGAGQGLEDAYFLARLLGDTQADAGNLAELLEAYDDLRRPRACRVQQTSWETGELYELRDPVVGANEQLLGENLATRFDWLWNHDLDTDLAEARARLGWEHGGGGALRQG
B7: alanine racemase H125A (Geobacillus stearothermophilus, UniProt P10724); chain MNDFHRDTWAEVDLDAIYDNVENLRRLLPDDTHIMAVVKANAYGHGDVQVARTALEAGASRLAVAFLDEALALREKGIEAPILVLGASRPADAALAAQQRIALTVFRSDWLEEASALYSGPFPIAFHLKMDTGMGRLGVKDEEETKRIVALIERHPHFVLEGLYTHFATADEVNTDYFSYQYTRFLHMLEWLPSRPPLVHCANSAASLRFPDRTFNMVRFGIAMYGLAPSPGIKPLLPYPLKEAFSLHSRLVHVKKLQPGEKVSYGATYTAQTEEWIGTIPIGYADGWLRRLQHFHVLVDGQKAPIVGRICMDQCMIRLPGPLPVGTKVTLIGRQGDEVISIDDVARHLETINYEVPCTISYRVPRIFFRHKRIMEVRNAIGRGESSA
B8: Tcur_2987 Y332L (Thermomonospora curvata, UniProt D1A807); chain ACSEERAAGARPSATQTTGTATEPFHGPHQAGIATPPQAHAVFLGLDLRKGTGRKELGRLMRLLTDDARRLTQGRPALADPEPDLAPLPSRLTFTFGFGPGLFKAAGLEKQRPEGLRPLPPFKVDRLEDRWSGGDLLVQICCDDPITLAHALRMTVKDARAFTRVRWVQRGFRRSPGVQSSGATQRNLMGQLDGTVNPVPGTADFDQAVWVQDGPEWLRGGTTLVLRRIRMELEKWDEADPAGKEFAVGRRLTSGAPLTGRHEHDEPDFDAVDSAGFPVIAENAHIRLAHVDSPRLRMLRRPYNLDEGLTADGRSDAGLLFAAYQADIDRQFIPVQRRLDEGGDLLNLWTTPIGSAVFAIPPGCDENGWIGQGLLG
B9: POLK W214Y/W392H/Y50W (Homo sapiens, UniProt Q9UBT6); chain MGLNDNKAGMEGLDKEKINKIIMEATKGSRFWGNELKKEKQVNQRIENMMQQKAQITSQQLRKAQLQVDRFAMELEQSRNLSNTIVHIDMDAFYAAVEMRDNPELKDKPIAVGSMSMLSTSNYHARRFGVRAAMPGFIAKRLCPQLIIVPPNFDKYRAVSKEVKEILADYDPNFMAMSLDEAYLNITKHLEERQNYPEDKRRYFIKMGSSVENDNPGKEVNKLSEHERSISPLLFEESPSDVQPPGDPFQVNFEEQNNPQILQNSVVFGTSAQEVVKEIRFRIEQKTTLTASAGIAPNTMLAKVCSDKNKPNGQYQILPNRQAVMDFIKDLPIRKVSGIGKVTEKMLKALGIITCTELYQQRALLSLLFSETSHHYFLHISLGLGSTHLTRDGERKSMSVERTFSEINKAEEQYSLCQELCSELAQDLQKERLKGRTVTIKLKNVNFEVKTRASTVSSVVSTAEEIFAIAKELLKTEIDADFPHPLRLRLMGVRISSFPNEEDRKHQQ
B10: cyc1 V329A (Streptomyces coelicolor, UniProt Q9K499); chain MHAFPHGTTATPTAIAVPPSLRLPVIEAAFPRQLHPYWPKLQETTRTWLLEKRLMPADKVEEYADGLCYTDLMAGYYLGAPDEVLQAIADYSAWFFVWDDRHDRDIVHGRAGAWRRLRGLLHTALDSPGDHLHHEDTLVAGFADSVRRLYAFLPATWNARFARHFHTVIEAYDREFHNRTRGIVPGVEEYLELRRLTFAHWIWTDLLEPSSGCELPDAVRKHPAYRRAALLSQEFAAWYNDLCSLPKEIAGDEVHNLGISLITHHSLTLEEAIGEVRRRVEECITEFLAVERDALRFADELADGTVRGKELSGAVRANVGNMRNWFSSAYWFHHESGRYMVDSWDDRSTPPYVNNEAAGEK
UniProt P07275, sequence (whole entry, looked up): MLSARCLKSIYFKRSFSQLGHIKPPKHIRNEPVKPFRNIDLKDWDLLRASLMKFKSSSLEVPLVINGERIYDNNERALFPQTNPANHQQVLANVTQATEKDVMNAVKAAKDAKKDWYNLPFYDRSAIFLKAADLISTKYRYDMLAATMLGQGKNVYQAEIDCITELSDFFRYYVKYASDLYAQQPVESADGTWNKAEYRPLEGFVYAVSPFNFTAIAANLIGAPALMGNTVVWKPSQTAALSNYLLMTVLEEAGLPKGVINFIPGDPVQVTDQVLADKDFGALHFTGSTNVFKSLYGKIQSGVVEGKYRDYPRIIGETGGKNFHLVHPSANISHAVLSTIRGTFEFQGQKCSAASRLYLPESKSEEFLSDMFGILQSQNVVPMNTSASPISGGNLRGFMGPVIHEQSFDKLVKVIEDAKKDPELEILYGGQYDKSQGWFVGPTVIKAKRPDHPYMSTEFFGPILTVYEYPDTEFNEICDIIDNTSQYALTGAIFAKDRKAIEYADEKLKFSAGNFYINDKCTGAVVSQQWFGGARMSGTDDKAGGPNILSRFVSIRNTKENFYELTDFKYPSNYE
UniProt P07914, sequence (whole entry, looked up): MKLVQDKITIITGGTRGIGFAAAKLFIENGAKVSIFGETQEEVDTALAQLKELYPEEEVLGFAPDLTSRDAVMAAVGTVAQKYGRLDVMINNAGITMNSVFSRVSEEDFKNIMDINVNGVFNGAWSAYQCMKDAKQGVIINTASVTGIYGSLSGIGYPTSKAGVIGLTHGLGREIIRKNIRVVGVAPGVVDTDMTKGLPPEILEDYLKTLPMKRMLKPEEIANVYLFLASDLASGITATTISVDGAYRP

Substance | substrate | pH | temperature | notes | with | kcat [s⁻¹]
B1 (TenA_E) | Cc1ncc(CN)c(N)n1 | pH 7.5 | 30 °C | amino-HMP aminohydrolase activity | 450 mM glycine betaine | 0.00015 ± 7e-06
B2 (Cop6) | CC(C)=CCC/C(C)=C/COP(=O)(O)OP(=O)(O)O | pH 8 | 30 °C |  | MgCl2 10 mM | 0.035 ± 0.003
B3 (ALDH4A1 S352A) | NC(=O)c1ccc[n+]([C@@H]2O[C@H](COP(=O)(O)OP(=O)(O)OC[C@H]3O[C@@H](n4cnc5c(N)ncnc54)[C@H](O)[C@@H]3O)[C@@H](O)[C@H]2O)c1 | pH 7 | 20 °C | sodium phosphate 0.1 M, cofactor varied | L-P5C | 5
B4 (GTPBP3 N259A) | Nc1nc2c(ncn2[C@@H]2O[C@H](COP(=O)(O)OP(=O)(O)OP(=O)(O)O)[C@@H](O)[C@H]2O)c(=O)[nH]1 | pH 8 | 37 °C | KCl 300 mM |  | 0.00117 ± 0.000167
enzyme (Trypanosoma brucei, UniProt Q8WQX5) | O=c1ccn([C@@H]2O[C@H](COP(=O)(O)OP(=O)(O)OP(=O)(O)O)[C@@H](O)[C@H]2O)c(=O)[nH]1 | pH 8 | 27 °C | apparent |  | 0.392 ± 0.01
B5 (enzyme) | Nc1nc2c(ncn2[C@@H]2O[C@H](CO)[C@@H](O)[C@H]2O)c(=O)[nH]1 | pH 8 |  |  |  | 12
STH1425 (Symbiobacterium thermophilum, UniProt Q67PI3) | O=C(O)C(=O)Cc1ccccc1 | pH 9 | 30 °C | reductive amination | NH4Cl 200 mM, NADPH 0.5 mM | 0.13 ± 0.03
enzyme (UniProt A0A7J5BGR1) | COc1cc(CN)ccc1O | pH 8 | 25 °C |  |  | 0.017
PUT2 (Saccharomyces cerevisiae, UniProt P07275) | O=C(O)[C@@H]1CCC=N1 | pH 7.5 | 20 °C |  |  | 1.5 ± 0.3
B6 (nahG) | Cc1cc2nc3c(=O)[nH]c(=O)nc-3n(C[C@H](O)[C@H](O)[C@H](O)COP(=O)(O)O)c2cc1C | pH 8.5 | 25 °C | no AMP, apparent, cofactor varied | NADH 200 µM, salicylate 150 µM | 8.4 ± 0.5
BaiA1 (Clostridium scindens, UniProt P07914) | NC(=O)c1ccc[n+]([C@@H]2O[C@H](COP(=O)(O)OP(=O)(O)OC[C@H]3O[C@@H](n4cnc5c(N)ncnc54)[C@H](O)[C@@H]3O)[C@@H](O)[C@H]2O)c1 | pH 8.7 | 37 °C | cofactor varied | glycocholic acid 1.4 mM | 0.3
LovD A190T/A86V/C40A/C60N/D12G/G275S/H161Y/K26E/L361M/V334D (Aspergillus terreus) | CCC(C)(C)C(=O)SCCC(=O)OC |  | 25 °C | 10% DMSO | 2 mM MJA | 0.055 ± 0.001
AphC (Rhodococcus jostii, UniProt Q0S9X1) | CCc1ccc(O)c(O)c1 | pH 8 | 25 °C | apparent | O2 | 0.246
B7 (alanine racemase H125A) | C[C@@H](N)C(=O)O | pH 9 | room temperature |  | NAD+ 10 mM | 440
B8 (Tcur_2987 Y332L) | Nc1c(S(=O)(=O)O)cc(Nc2cccc(S(=O)(=O)CCOS(=O)(=O)O)c2)c2c1C(=O)c1ccccc1C2=O | pH 3 |  | sigmoidal kinetics | H2O2 1 mM | 97 ± 1
alanine aminopeptidase (Neisseria meningitidis, UniProt Q9JYV4) | N=C(NCCC[C@H](N)C(=O)Nc1ccc2c(CC(N)=O)cc(=O)oc2c1)N[N+](=O)[O-] | pH 7.5 | 37 °C |  |  | 7.25 ± 0.2
B9 (POLK W214Y/W392H/Y50W) | Nc1ccn([C@H]2C[C@H](O)[C@@H](COP(=O)(O)OP(=O)(O)OP(=O)(O)O)O2)c(=O)n1 | pH 7.5 | 23 °C | MgCl2 5 mM | G template | 0.025 ± 0.002
B10 (cyc1 V329A) | CC(C)=CCC/C(C)=C/CC/C(C)=C/CO[P@@](=O)(O)OP(=O)(O)O | pH 6.5 | 30 °C |  | MgCl2 10 mM | 0.126 ± 0.007

Repeated from above:
Substance | substrate | pH | temperature | notes | with | kcat [s⁻¹]
B7 (alanine racemase H125A) | C[C@@H](N)C(=O)O | pH 9 | room temperature |  | NAD+ 10 mM | 440
B5 (enzyme) | Nc1nc2c(ncn2[C@@H]2O[C@H](CO)[C@@H](O)[C@H]2O)c(=O)[nH]1 | pH 8 |  |  |  | 12
